Results from different studies.
UniProt Q13464, sequence (whole entry, looked up): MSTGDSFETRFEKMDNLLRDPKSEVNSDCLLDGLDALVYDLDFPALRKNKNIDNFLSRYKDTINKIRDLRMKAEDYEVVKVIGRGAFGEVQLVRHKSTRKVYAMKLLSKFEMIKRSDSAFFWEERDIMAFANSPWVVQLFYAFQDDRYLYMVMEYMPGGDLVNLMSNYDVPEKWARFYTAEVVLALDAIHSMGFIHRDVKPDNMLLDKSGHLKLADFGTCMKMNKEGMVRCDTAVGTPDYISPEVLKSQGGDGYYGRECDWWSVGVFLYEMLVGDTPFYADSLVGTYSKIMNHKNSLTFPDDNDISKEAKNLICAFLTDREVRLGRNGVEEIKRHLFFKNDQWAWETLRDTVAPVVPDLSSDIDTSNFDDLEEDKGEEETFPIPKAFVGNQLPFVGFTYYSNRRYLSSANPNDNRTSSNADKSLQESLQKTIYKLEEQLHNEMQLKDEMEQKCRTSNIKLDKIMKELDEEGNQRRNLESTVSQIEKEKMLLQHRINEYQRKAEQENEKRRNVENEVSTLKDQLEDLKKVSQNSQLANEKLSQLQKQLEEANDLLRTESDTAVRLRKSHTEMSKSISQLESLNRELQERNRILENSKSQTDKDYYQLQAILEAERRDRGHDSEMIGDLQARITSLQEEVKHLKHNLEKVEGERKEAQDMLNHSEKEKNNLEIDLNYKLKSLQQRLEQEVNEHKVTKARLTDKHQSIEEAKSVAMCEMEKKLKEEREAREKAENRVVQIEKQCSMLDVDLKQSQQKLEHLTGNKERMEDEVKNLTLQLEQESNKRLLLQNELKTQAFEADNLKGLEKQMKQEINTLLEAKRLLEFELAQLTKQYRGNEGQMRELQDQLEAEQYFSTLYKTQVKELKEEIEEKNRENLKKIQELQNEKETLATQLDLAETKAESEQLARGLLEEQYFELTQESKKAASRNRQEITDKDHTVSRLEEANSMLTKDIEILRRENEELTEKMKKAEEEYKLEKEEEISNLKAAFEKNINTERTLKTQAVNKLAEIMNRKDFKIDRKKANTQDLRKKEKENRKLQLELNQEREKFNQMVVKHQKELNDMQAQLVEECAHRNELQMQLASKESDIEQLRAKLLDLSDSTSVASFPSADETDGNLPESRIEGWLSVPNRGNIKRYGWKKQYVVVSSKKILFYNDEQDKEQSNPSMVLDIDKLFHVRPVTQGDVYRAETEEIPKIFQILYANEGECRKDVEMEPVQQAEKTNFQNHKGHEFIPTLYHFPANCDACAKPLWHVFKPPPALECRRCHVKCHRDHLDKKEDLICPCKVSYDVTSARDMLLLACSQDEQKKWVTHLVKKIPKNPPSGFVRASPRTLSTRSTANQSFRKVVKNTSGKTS

Compound	target or system	assay	conditions	endpoint	value
COc1ccc(C(=O)Nc2ccccc2C(=O)N[C@H](C(=O)NC2CCCCC2)C(C)C)cc1	MRC5	cell growth or viability, MTT	72 h	CC50	139 µM
COc1cc(C=CC(=O)O)ccc1OC(C)=O	HaCaT	cell growth or viability, MTT	24 h	CC50	> 250 µM
CC(=O)N[C@H](C(=O)N1C[C@H](O)C[C@H]1C(=O)NCc1ccc(-c2scnc2C)cc1)C(C)(C)C	SNU-C4	cell growth or viability, ATP luminescence	24 h	CC50	> 30 µM
C[N+]1=C2C=C(NCCc3ccc(O)cc3)C(=O)c3[nH]cc(c32)CC1	HEK293	cell growth or viability, MTT	72 h	CC50	1 µM
N#C[C@@]1(n2ccc(N)nc2=O)O[C@H](CO)[C@@H](O)[C@H]1O	Vero	cell growth or viability		CC50	98.7 µM
C[N+]1=C2C=C(N)C(=O)c3[nH]cc(c32)CC1	HEK293	cell growth or viability, MTT	72 h	CC50	0.78 µM
CC(C)(C)C(O)C(Oc1ccc(-c2ccccc2)cc1)n1cncn1 (centres unmarked)	HEK293	cell growth or viability, MTT	24 h	CC50	100 µM
[2H]c1c([2H])c([C@]2([2H])CCCN2C(=O)C(C)(C)Oc2ccc3cn[nH]c3c2)c([2H])c([2H])c1C([2H])([2H])[2H]	ROCK1 (Homo sapiens, UniProt Q13464)	binding, competition with immobilised ligand	1 µM	remaining binding	94%
CCC(CC)COC(=O)[C@H](C)N[P@](=O)(OC[C@H]1O[C@@](C#N)(c2ccc3c(N)ncnn23)[C@H](O)[C@@H]1O)Oc1ccccc1	Vero	cell growth or viability		CC50	> 100 µM
CC(C)[C@H](NC(=O)c1ccccc1NC(=O)c1ccccn1)C(=O)N[C@H](CO)C(C)C	MRC5	cell growth or viability, MTT	72 h	CC50	> 250 µM
O=C(O)/C=C/c1ccc(O)c(O)c1	HaCaT	cell growth or viability, MTT	24 h	CC50	> 250 µM

For quick reference, copied from above:
Compound	target or system	assay	conditions	endpoint	value
CC(=O)N[C@H](C(=O)N1C[C@H](O)C[C@H]1C(=O)NCc1ccc(-c2scnc2C)cc1)C(C)(C)C	SNU-C4	cell growth or viability, ATP luminescence	24 h	CC50	> 30 µM
